{"data": "Published values collected from several papers", "note": "Each numbered part is a random draw from the data of one study; scales do not carry over between parts."}
{"data": "Sample 1", "target": "Fragile X messenger ribonucleoprotein 1, C-terminal low-complexity region (Fmr1, Mus musculus, UniProt P35922)", "method": "RNA Bind-n-Seq", "molecule type": "RNA", "sample": "in vitro", "tested at": "200 nM", "notes": "whole 134-nt RNA, ends assumed", "with": "150 mM LiCl", "reference": "input library", "direction": "higher = stronger binding", "each molecule": "7-deaza-guanosine replaces G"}
{"Sequence": "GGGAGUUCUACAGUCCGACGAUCUGGCCCUGGUGGCAUGCGGGGAGGAAGAGGUGGCCUCAUGGAUCGUGGUGGUCCCGGUGGAAUGUUCAGAGGUGGCCGUGGUGGAGAGAGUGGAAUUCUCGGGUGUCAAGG", "log2 enrichment": 0.0255}
{"Sequence": "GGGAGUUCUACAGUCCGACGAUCGUCCUGUGCUACACAUCGUAUGUACCGAAUCGGGGCCCCCCGGCCCCCCGGCCCCCCGGAAAGUAUUAUGUUACGCCGUUCGGAUCUGCAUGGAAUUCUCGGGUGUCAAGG", "log2 enrichment": 0.591}
{"Sequence": "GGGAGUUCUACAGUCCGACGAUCGUCCUGUGCUACACAUCGUAUGUACCGAAUCGGCCCCCCGGCCCCCCGGGGCCCCCCGGAAAGUAUUAUGUUACGCCGUUCGGAUCUGCAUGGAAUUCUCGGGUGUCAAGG", "log2 enrichment": 0.603}
{"Sequence": "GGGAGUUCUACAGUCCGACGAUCUCCUGUGCUACACAUCGUAUGUACCGAAUCGGGAAAAAGGGAAAAAGGGAAAAAAAGGGAAAGUAUUAUGUUACGCCGUUCGGAUCUGCAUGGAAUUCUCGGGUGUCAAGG", "log2 enrichment": 0.631}
{"Sequence": "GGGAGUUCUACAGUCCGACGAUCUUGUGGAAAACCCACAUGCUCCUCAGAAAGAUGAUGCCCUGGUGAUCACACACUACAACCGGACCCGACAGCAGGAAGAGAUGCUGGGGCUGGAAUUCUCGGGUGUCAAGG", "log2 enrichment": -0.84}
{"Sequence": "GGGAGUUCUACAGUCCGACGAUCUGGCCCUGGUGGCAUGCGGGGAGGAAGAGGUGGCCUCCUGGAUCGUGGUGGUCCCGGUGGAAUGUUCAGAGGUGGCCGUGGUGGAGACAGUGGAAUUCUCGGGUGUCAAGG", "log2 enrichment": -0.0745}
{"Sequence": "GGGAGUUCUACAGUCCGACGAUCCACAGACAACACGCACCCACACAGACACAGAGGGAAGGGGUUGGGAUGGGGACAGGGUGCACAGCAGGGCGGGGUAGGUCCCCAGCCCCUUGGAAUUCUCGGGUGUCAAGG", "log2 enrichment": 1.87}
{"Sequence": "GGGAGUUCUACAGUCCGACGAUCGCAGGAAGUAAAAACAAAUGGAAAUGCUUCGUAUAGUGGCAGGGGUGGGGGUUGCUAAGGAAAGGGUGGGAUGGGAGUGGGUAAAGAGUUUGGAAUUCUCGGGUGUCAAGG", "log2 enrichment": 1.4}
{"Sequence": "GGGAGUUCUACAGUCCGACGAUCUCCUGUGCUACACAUCGUAUGUACCGAAUCGGGUUUUUGGGGUUUUUGGGUUUUUGGGGAAAGUAUUAUGUUACGCCGUUCGGAUCUGCAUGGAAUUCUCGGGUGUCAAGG", "log2 enrichment": -0.966}
{"Sequence": "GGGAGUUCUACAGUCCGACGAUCCAAGUCCUGUGCUACACAUCGUAUGUACCGAAUCGGGGAGGGGUUUGGGGAGGGGAAAGUAUUAUGUUACGCCGUUCGGAUCUGCACUUCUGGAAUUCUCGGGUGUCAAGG", "log2 enrichment": 0.317}
{"Sequence": "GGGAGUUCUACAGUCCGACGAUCAGUCCUGUGCUACACAUCGUAUGUACCGAAUCAAACCCCCCCAAAUUUAAAUUUAAAAAAGUAUUAUGUUACGCCGUUCGGAUCUGCACUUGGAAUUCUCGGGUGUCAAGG", "log2 enrichment": 1.29}
{"data": "Sample 2", "target": "RNA binding protein fox-1 homolog 2, RRM domain, GST-SBP tag (RBFOX2, Homo sapiens, UniProt O43251-10, residues 100-194)", "method": "RNA Bind-n-Seq", "molecule type": "RNA", "sample": "in vitro", "tested at": "365 nM", "notes": "natural RNA segment, single round, ends assumed", "reference": "no-protein control", "direction": "higher = stronger binding", "Residues (chain)": "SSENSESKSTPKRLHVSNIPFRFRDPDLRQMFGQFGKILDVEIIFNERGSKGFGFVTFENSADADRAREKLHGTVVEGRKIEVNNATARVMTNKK"}
{"Sequence": "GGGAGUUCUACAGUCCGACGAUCACCGGGUCCACUGUGGAGCAGCCAUCUAUCUACCUGACUCCUGAGCCAGGCUGCCGUGGUGUCAUUUCUGUCAUCCGUGCUCUGUUUCCUUUUGGAGUUUCUUCUCCACAUGGAAUUCUCGGGUGCCAA", "RBNS enrichment (R)": 0.206}
{"Sequence": "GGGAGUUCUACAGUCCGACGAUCCUUUUAAGGCAGCAGGGAGGCCUGGGUGCGAAGCAUGUUGGCUUGGCCCUUCACGGUCCUGGAGGGAGGUGAGGCUGGCCUUGGAAGGCGUGCCCUGGAGAGGUCUUGGGUGGAAUUCUCGGGUGCCAA", "RBNS enrichment (R)": 7.22}
{"Sequence": "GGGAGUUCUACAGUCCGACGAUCAUCACUUUAAUUGUAAUGAUAGAUAAAUAAGACAGGACAAACUACAGUUUGUCUCAGAGGAAUCCAAGGAUUCUUUUUCAGACAAGUUGUAGGUCCCGCAUACAUGUCCAUGGAAUUCUCGGGUGCCAA", "RBNS enrichment (R)": 0.282}
{"Sequence": "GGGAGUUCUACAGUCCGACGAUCAUCACAUUCUAGGAAGCAAUGGCAGGUGACAUCACUAUUAUAAUAGGAACAAUGCAUUCUAAUGGUACAACUGCCAAAACCCACCCUUGGUUUCUGAUGAUUUAUAAGUAUGGAAUUCUCGGGUGCCAA", "RBNS enrichment (R)": 0.438}
{"Sequence": "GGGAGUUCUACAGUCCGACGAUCGCCUUGGCAGGUGCAGUUUGCAGUUCACUGCAGCUCCCUCCCCCUUUUGUUUCCUCAAUUUAAGCAGAGGUUGUGCCAGCUGUAGAAACUUCAGUCCCUCAGGCUGGCAGUGGAAUUCUCGGGUGCCAA", "RBNS enrichment (R)": 0.383}
{"Sequence": "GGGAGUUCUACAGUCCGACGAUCCCACAGACUUUUCAAAGCCCAACUCUACUUUUUUGAGAAUUUGUCCGUACCUACUAAUAUGCCUUAUUCUUCUUCACCUAGUGUUUUAAAAGUCCUGGGUAGAAAGAGUUUGGAAUUCUCGGGUGCCAA", "RBNS enrichment (R)": 0.465}
{"Sequence": "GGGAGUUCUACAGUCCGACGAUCCAGAGUGAGGUUUAGCUUUGUCUUUCUGGGAUUCUCAGGUUCCACAGUAAUUACAAGCUGACUUUUUACUGAACAUAGGAAUGUUAAAAACAAAUGUGUAGGUGGCUGGAUGGAAUUCUCGGGUGCCAA", "RBNS enrichment (R)": 0.713}
{"Sequence": "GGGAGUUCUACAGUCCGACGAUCAUAACAUUUUAGAAGCAAAGAACAAGCCUUUCUAAAUCUUCAGCUGUCAGCGUUUGGCAUUUAAUCUUUUUGCCAUUUUAAUUUGCCUACUUACAUUGUGUUCAUAUAUUUGGAAUUCUCGGGUGCCAA", "RBNS enrichment (R)": 0.607}
{"Sequence": "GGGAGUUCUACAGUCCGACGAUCGUGUAAAGAAAAUAGUUUCUUGGGUAUUUGUAACGUACAAACUAUCAUAAAAAUUCUCCUCUUUCGCUCUCACUUUGUCUCUUCUAAGUCGGCCUCAGCAAUAGCCCAGGUGGAAUUCUCGGGUGCCAA", "RBNS enrichment (R)": 0.446}
{"Sequence": "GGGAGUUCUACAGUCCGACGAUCAGAUGAAUGGUUAACACGAGCUAGUUAAACAGUGCCAUUGUUUUGCCAGUGAAGCCUCCAACCCUAAGCCACUGGGACGGUGGCCAGAGAUGCCAGCAGCCUCUGUCGCCUGGAAUUCUCGGGUGCCAA", "RBNS enrichment (R)": 0.428}
{"Sequence": "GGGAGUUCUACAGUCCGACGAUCAUGAGAAACCAAGAAAUGCUGCUUGUGUGGUGCUCUGCUUCCUGAGGAUUUGGCUGGAAGGGGAUUCUCCGCUGGCACAUGGGAGAAGGCCAUCUUCUGUGUCGGUGCUGUGGAAUUCUCGGGUGCCAA", "RBNS enrichment (R)": 0.918}
{"Sequence": "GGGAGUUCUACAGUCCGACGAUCGAGAUUUGAAAUCCCUUACCUCCAAUAAUAAGCCAUUCAGCCUAAAUUCAUUUUUAUGAAUAAAUCUCUUCUUUCUCAUGGUAAAUGUGGCUUGUGCCACUCAAACACUAUGGAAUUCUCGGGUGCCAA", "RBNS enrichment (R)": 0.749}
{"data": "Sample 3", "target": "Histone acetyltransferase KAT6A, both winged helices, GST fusion (KAT6A, Homo sapiens, UniProt Q92794, residues 1-181)", "method": "protein binding microarray", "molecule type": "double-stranded DNA, one strand shown", "sample": "in vitro", "tested at": "not given", "notes": "8-mer, flanks averaged, mean of 2 arrays, mostly near background", "reference": "not given", "direction": "higher = stronger binding", "Target sequence (chain)": "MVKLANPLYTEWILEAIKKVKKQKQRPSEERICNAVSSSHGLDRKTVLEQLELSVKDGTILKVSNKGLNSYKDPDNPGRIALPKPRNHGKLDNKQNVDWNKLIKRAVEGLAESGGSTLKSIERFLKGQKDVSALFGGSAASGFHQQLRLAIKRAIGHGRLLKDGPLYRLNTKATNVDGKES"}
{"Sequence": "AGTGATAG", "E-score": -0.166}
{"Sequence": "CTAGATTA", "E-score": -0.131}
{"Sequence": "TAAAGAGA", "E-score": -0.0825}
{"Sequence": "AAACCCGG", "E-score": 0.305}
{"Sequence": "ACAGGTTG", "E-score": -0.165}
{"Sequence": "GACATGGC", "E-score": -0.118}
{"Sequence": "CTTGCTTA", "E-score": -0.114}
{"Sequence": "GGCGCGAA", "E-score": 0.2}
{"Sequence": "AAATGAAC", "E-score": -0.135}
{"Sequence": "ATTTGTTC", "E-score": -0.00999}
{"Sequence": "AAAGATGC", "E-score": -0.0784}
{"Sequence": "GTTATCCA", "E-score": -0.172}
{"Sequence": "ATGATAGC", "E-score": 0.159}
{"Sequence": "AGGCAGGC", "E-score": -0.138}
{"Sequence": "GTACTACA", "E-score": -0.177}
{"Sequence": "CCACAGGC", "E-score": -0.214}
{"Sequence": "GGCTGTTA", "E-score": 0.144}
{"Sequence": "GTCATTTA", "E-score": -0.169}
{"Sequence": "AAAATAAG", "E-score": -0.211}
{"Sequence": "CAAGTAGG", "E-score": -0.222}
{"Sequence": "AGGATGTA", "E-score": -0.0877}
{"Sequence": "ACCGCGGT", "E-score": 0.381}
{"Sequence": "CGTTCTCA", "E-score": 0.0755}
{"Sequence": "CTGTCCGA", "E-score": 0.145}
{"Sequence": "AAAACGCA", "E-score": 0.107}
{"data": "Sample 4", "target": "Sal-like protein 4, full length isoform A (SALL4, Homo sapiens, UniProt Q9UJQ4, residues 1-1053)", "method": "universal PBM", "molecule type": "double-stranded DNA, one strand shown", "sample": "in vitro", "tested at": "600 nM", "notes": "8-mer, flanks averaged, mean of replicates", "direction": "higher = stronger binding", "chain of UniProt Q9UJQ4 (whole entry, looked up)": "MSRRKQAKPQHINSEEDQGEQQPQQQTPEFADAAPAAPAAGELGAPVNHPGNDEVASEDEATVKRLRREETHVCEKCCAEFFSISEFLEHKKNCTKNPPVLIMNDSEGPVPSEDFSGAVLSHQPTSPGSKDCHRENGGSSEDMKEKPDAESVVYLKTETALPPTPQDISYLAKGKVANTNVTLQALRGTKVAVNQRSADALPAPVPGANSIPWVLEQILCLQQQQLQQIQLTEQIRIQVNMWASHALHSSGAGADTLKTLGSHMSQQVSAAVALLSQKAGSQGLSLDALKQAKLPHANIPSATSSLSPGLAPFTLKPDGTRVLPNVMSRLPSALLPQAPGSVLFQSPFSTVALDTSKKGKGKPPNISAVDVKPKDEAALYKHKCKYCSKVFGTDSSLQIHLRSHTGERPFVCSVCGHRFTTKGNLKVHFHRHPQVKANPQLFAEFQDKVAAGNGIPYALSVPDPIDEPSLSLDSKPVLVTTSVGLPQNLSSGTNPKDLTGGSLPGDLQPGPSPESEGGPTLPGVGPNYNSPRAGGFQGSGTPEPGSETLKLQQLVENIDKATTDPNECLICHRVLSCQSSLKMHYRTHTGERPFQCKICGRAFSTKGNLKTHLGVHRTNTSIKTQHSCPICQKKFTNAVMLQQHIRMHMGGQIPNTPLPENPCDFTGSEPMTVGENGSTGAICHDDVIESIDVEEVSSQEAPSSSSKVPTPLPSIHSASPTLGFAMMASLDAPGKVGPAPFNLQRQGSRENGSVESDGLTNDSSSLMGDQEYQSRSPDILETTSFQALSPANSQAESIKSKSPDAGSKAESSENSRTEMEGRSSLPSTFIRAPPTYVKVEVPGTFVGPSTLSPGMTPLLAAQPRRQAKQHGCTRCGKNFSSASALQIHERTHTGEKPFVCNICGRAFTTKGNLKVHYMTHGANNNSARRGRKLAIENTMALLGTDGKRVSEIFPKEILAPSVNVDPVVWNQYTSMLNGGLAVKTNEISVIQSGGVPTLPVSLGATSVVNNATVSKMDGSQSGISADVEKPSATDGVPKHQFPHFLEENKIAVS"}
{"Sequence": "TATACAAA", "E-score": 0.354}
{"Sequence": "CCTGCTTC", "E-score": -0.164}
{"Sequence": "AATCCAGT", "E-score": -0.0124}
{"Sequence": "ATTTCGAC", "E-score": -0.0631}
{"Sequence": "GTAGCGGA", "E-score": 0.0511}
{"Sequence": "GCCTGTTA", "E-score": 0.00417}
{"Sequence": "ACGCCGCC", "E-score": -0.37}
{"Sequence": "ATCTGTTA", "E-score": 0.219}
{"Sequence": "GTGACAAC", "E-score": -0.0252}
{"Sequence": "CCTTCCTC", "E-score": -0.179}
{"Sequence": "CTACCTGC", "E-score": -0.167}
{"Sequence": "AATCGAAA", "E-score": 0.198}
{"Sequence": "CAGGCGCG", "E-score": -0.377}
{"Sequence": "GGATAGAA", "E-score": 0.206}
{"Sequence": "CTTGTATA", "E-score": 0.284}
{"Sequence": "CTCACCTA", "E-score": 0.0643}
{"Sequence": "CGAACCAC", "E-score": -0.182}
{"Sequence": "CACCTTCA", "E-score": -0.0827}
{"Sequence": "CGATGGTC", "E-score": -0.156}
{"Sequence": "TCTTTGAA", "E-score": 0.15}
{"Sequence": "CAGACACA", "E-score": 0.0201}
{"Sequence": "ACACCACT", "E-score": 0.0729}
{"Sequence": "GACTCATA", "E-score": 0.206}
{"Sequence": "AAACGTTT", "E-score": 0.207}
{"note": "Some of these lines once more (sample 3):"}
{"Sequence": "TAAAGAGA", "E-score": -0.0825}
{"Sequence": "AGGCAGGC", "E-score": -0.138}
{"Sequence": "CTGTCCGA", "E-score": 0.145}
{"Sequence": "ACAGGTTG", "E-score": -0.165}
{"Sequence": "GTCATTTA", "E-score": -0.169}
{"Sequence": "AAACCCGG", "E-score": 0.305}
{"Sequence": "AGTGATAG", "E-score": -0.166}
{"Sequence": "CTAGATTA", "E-score": -0.131}
{"Sequence": "GTTATCCA", "E-score": -0.172}
{"Sequence": "GGCTGTTA", "E-score": 0.144}
